Experimental data from different studies.
Each line is one published result; not all experiments were run side by side. Numbers after ± are the reported error. No end group written: not given here.
B1: TIMP3 24-144 (Homo sapiens, UniProt P35625); sequence looked up; chain CTCSPSHPQDAFCNSDIVIRAKVVGKKLVKEGPFGTLVYTIKQMKMYRGFTKMPHVQYIHTEASESLCGLKLEVNKYQYLLTGRVYDGKMYTGLCNFVERWDQLTLSQRKGLNYRYHLGCN
B2: ATF1 (Homo sapiens, UniProt P18846); sequence looked up; chain MEDSHKSTTSETAPQPGSAVQGAHISHIAQQVSSLSESEESQDSSDSIGSSQKAHGILARRPSYRKILKDLSSEDTRGRKGDGENSGVSAAVTSMSVPTPIYQTSSGQYIAIAPNGALQLASPGTDGVQGLQTLTMTNSGSTQQGTTILQYAQTSDGQQILVPSNQVVVQTASGDMQTYQIRTTPSATSLPQTVVMTSPVTLTSQTTKTDDPQLKREIRLMKNREAARECRRKKKEYVKCLENRVAVLENQNKTLIEELKTLKDLYSNKSV
B3: rof 1-84 D14A (Escherichia coli, UniProt P0AFW8); chain MNDTYQPINCDDYANLELACQHHLMLTLELKDGEKLQAKASDLVSRKNVEYLVVEAAGETRELRLDKITSFSHPEIGTVVVSES
B4: erenumab; V domains shown; sequence looked up; VH QVQLVESGGGVVQPGRSLRLSCAASGFTFSSFGMHWVRQAPGKGLEWVAVISFDGSIKYSVDSVKGRFTISRDNSKNTLFLQMNSLRAEDTAVYYCARDRLNYYDSSGYYHYKYYGMAVWGQGTTVTVSS; VL QSVLTQPPSVSAAPGQKVTISCSGSSSNIGNNYVSWYQQLPGTAPKLLIYDNNKRPSGIPDRFSGSKSGTSTTLGITGLQTGDEADYYCGTWDSRLSAVVFGGGTKLTVL

TPDYLMQLMNDKKLMSSAPNFSGIFNHLERLLDEEISRVRKDMYNDTLNGSTEK (Qki 14-67 C35S/L31A (Mus musculus, UniProt Q9QYS9)) — melting temperature (itself; CD thermal melting; 50 µM): 62 °C
VPLPAGGGTVLTKMYPRGNHWAVGHLM-NH2 (GRP mature (UniProt P07492); C-terminal amide) — activity decrease (GRPR R308A (Homo sapiens, UniProt P30550); calcium mobilization; peptide, CHO; reference: wild-type receptor, higher = greater loss): 66 fold
B1 (TIMP3 24-144) — Ki (ADAMTS5 262-930 (Homo sapiens, UniProt Q9UNA0); inhibitor, steady-state kinetics; 1 h, 37 °C, apparent, tight-binding fit): 0.14 nM
FGF2 (Homo sapiens, UniProt P09038) — cell proliferation (FGFR3 isoform IIIc (unknown, UniProt Q61851); cell proliferation, MTT; BaF3-FGFR3c; 20 nM, 48 h, with: 2-O desulfated heparin 4.9 µg/mL; reference: FGF 1 with heparin, higher = more proliferation): 87%
B2 (ATF1) — interaction activity (CDK3 (Homo sapiens, UniProt Q00526); luciferase, two-hybrid; HEK293; 36 h; reference: control without prey factor, higher = stronger interaction): > 15 fold
UGT1A9 (Homo sapiens, UniProt O60656) — Km (Oc1ccc(I)cc1; steady-state kinetics; pH 7.4, 37 °C): 20.5 µM
4EHP (Drosophila melanogaster) — reporter activity (Gyf (Drosophila melanogaster, UniProt Q7KQM6); F-Luc reporter activity; S2 cells; tethering; reference: λN-HA alone, lower = more repression): 20%
rob (Escherichia coli, UniProt P0ACI0) — transcription activation (rpoD R603A (Escherichia coli, UniProt P00579); β-galactosidase reporter; with: micF promoter; reference: wild-type σ70, higher = more activation): 73%
B3 (rof 1-84 D14A) — terminated transcripts (rho 1-419 (Escherichia coli, UniProt P0AG30); rho termination, inhibitor; lower = more inhibition): 86%
C5a (Homo sapiens, UniProt P01031) — CD11b expression (C5AR1 (Homo sapiens, UniProt P21730); flow cytometry; granulocytes, whole blood; 210 nM, with: TRAP 10 µM; reference: TRAP alone, higher = more expression): 1.5 fold
HLA-DRA/HLA-DRB1 heterodimer, on cells (Homo sapiens) — fraction of 1-particle spots (itself; single-particle fluorescence imaging; 37 °C): 82 ± 6%
B4 (erenumab) — pKB (CALCR/RAMP1 on cells (Homo sapiens); cAMP production, antagonist, Schild analysis; antibody, HEK293S; with: amylin): 5.84
ADRB1 (Homo sapiens, UniProt P08588) — pERK (ADORA1 (Homo sapiens, UniProt P30542); pERK, agonist; HEK-293; 250 nM, 5 min, co-transfected, in cells, with: CCPA): 1.46 fold

Some of these lines once more:
rob (Escherichia coli, UniProt P0ACI0) — transcription activation (rpoD R603A (Escherichia coli, UniProt P00579); β-galactosidase reporter; with: micF promoter; reference: wild-type σ70, higher = more activation): 73%
VPLPAGGGTVLTKMYPRGNHWAVGHLM-NH2 (GRP mature (UniProt P07492); C-terminal amide) — activity decrease (GRPR R308A (Homo sapiens, UniProt P30550); calcium mobilization; peptide, CHO; reference: wild-type receptor, higher = greater loss): 66 fold
